Published values pooled from the literature.
A part holds a random share of what one study measured. Several values in a cell are separate wells, animals, samples, runs or records.
Sequence of UniProt P48730 (whole entry, looked up): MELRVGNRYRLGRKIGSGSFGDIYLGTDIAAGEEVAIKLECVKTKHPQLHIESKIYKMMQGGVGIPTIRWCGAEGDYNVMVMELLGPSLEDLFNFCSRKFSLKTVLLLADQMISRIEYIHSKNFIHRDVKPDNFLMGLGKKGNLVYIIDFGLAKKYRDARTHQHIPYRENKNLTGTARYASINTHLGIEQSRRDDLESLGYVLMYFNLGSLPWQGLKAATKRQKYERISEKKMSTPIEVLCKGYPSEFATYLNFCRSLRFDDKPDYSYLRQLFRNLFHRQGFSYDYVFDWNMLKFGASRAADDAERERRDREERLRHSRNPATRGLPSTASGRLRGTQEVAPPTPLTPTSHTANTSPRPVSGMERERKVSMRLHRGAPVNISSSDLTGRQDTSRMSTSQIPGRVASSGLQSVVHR
Sequence of UniProt Q96RR4 (whole entry, looked up): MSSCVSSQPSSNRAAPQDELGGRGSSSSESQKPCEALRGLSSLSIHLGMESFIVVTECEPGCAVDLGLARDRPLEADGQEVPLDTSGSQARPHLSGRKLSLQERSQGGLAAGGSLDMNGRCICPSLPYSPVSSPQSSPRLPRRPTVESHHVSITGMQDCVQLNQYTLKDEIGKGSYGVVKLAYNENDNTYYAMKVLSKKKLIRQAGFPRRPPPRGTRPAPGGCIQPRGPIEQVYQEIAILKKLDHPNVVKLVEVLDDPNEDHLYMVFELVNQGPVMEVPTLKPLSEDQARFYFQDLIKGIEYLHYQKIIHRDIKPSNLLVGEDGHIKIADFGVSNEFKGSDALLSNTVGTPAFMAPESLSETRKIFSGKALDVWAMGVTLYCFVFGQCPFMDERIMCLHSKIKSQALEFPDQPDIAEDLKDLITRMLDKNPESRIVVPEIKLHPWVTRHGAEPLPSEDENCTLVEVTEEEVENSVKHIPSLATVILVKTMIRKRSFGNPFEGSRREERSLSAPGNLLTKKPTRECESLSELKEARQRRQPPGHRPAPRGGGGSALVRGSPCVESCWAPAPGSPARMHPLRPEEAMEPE
Sequence of UniProt P25098 (whole entry, looked up): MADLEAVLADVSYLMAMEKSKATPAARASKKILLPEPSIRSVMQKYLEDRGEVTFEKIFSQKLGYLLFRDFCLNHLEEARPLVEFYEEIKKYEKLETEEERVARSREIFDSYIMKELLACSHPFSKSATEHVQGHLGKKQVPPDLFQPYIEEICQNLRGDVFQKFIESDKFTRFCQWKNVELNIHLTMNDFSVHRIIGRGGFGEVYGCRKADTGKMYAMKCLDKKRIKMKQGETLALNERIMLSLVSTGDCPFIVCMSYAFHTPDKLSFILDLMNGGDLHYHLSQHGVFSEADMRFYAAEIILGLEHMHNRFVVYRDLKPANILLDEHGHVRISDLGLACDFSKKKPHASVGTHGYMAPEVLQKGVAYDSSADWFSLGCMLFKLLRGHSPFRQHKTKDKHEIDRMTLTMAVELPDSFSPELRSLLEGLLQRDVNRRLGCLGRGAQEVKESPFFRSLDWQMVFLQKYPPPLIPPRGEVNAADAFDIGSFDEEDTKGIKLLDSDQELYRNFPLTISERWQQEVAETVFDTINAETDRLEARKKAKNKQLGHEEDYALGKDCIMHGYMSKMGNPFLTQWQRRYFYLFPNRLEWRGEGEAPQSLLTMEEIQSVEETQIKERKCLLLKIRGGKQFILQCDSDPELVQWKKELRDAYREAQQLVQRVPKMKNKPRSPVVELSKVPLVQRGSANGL
Sequence of UniProt Q9Y616 (whole entry, looked up): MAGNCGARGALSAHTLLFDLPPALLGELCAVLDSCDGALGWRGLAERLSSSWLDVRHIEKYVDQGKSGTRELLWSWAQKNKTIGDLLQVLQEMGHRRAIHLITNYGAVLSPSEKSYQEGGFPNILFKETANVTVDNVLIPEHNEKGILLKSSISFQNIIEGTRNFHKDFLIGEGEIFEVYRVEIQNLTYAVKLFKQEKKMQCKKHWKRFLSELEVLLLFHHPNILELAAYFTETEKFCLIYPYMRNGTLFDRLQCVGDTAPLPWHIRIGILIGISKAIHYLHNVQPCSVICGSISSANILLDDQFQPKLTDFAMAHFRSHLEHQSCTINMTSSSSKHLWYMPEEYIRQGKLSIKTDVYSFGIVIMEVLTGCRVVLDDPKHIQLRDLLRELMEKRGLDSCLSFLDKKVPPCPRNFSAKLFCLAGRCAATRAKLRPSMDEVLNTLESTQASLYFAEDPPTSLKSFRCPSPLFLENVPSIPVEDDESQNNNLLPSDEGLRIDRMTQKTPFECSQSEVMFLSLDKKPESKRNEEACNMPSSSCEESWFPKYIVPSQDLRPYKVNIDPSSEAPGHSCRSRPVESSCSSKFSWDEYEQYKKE
Sequence of UniProt Q00532 (whole entry, looked up): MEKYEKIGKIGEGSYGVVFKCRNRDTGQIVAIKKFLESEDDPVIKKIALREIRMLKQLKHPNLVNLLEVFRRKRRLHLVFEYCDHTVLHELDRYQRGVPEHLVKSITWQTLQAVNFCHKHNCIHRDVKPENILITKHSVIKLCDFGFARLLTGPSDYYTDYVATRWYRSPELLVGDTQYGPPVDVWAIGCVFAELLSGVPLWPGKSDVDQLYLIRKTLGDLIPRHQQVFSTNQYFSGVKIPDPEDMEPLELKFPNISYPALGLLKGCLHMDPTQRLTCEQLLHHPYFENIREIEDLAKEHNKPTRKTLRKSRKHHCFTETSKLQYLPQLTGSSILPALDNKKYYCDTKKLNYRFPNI
Sequence of UniProt Q07002 (whole entry, looked up): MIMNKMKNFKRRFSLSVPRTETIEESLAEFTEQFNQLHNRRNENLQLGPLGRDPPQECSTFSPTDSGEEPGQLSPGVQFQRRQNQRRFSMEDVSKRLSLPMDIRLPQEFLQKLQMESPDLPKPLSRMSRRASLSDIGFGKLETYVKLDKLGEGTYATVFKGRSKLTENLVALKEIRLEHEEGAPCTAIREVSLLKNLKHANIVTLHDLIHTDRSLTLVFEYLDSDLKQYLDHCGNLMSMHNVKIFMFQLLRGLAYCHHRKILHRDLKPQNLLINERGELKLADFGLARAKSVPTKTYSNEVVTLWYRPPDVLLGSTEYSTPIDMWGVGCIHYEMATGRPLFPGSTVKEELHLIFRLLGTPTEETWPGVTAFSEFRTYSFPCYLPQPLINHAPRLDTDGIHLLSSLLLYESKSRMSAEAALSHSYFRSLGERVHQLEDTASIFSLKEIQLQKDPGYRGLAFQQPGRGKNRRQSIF
Sequence of UniProt P57059 (whole entry, looked up): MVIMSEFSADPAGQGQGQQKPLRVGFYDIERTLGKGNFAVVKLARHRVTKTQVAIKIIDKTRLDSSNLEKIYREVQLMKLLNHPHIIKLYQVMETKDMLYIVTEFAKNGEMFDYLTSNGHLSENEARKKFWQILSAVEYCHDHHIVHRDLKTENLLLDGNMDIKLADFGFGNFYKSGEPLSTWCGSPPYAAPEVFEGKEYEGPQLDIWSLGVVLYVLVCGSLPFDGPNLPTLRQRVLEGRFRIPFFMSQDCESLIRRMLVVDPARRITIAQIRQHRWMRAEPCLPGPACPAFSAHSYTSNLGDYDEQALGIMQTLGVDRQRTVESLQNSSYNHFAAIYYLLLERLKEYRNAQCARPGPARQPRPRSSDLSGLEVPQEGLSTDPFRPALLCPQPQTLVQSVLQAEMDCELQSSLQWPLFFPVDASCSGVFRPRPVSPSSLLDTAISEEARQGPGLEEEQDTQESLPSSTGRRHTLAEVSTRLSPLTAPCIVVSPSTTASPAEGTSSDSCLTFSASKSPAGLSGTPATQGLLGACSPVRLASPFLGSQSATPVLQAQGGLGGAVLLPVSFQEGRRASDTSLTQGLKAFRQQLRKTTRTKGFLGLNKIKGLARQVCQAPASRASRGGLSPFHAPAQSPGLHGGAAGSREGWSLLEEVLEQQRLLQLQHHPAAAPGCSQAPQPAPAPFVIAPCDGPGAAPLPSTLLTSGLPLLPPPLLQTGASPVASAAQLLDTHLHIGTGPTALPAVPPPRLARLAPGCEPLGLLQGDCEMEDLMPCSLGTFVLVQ
Sequence of UniProt Q9H3Y6 (whole entry, looked up): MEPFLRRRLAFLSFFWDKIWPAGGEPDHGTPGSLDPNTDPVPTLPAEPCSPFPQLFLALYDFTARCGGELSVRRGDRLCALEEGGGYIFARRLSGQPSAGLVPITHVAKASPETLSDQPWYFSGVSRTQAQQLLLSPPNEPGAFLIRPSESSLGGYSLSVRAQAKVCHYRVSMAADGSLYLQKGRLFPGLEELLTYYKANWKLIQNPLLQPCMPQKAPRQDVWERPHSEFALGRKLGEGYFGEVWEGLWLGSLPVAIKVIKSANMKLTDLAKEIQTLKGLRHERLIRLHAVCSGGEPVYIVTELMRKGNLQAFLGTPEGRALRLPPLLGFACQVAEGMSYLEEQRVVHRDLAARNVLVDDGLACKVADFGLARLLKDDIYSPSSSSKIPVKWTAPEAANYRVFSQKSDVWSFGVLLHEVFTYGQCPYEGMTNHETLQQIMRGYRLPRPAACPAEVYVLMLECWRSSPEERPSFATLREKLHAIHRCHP

Block 1
Target: Ribosomal protein S6 kinase beta-1 (RPS6KB1, Homo sapiens, UniProt P23443)
Sequence of UniProt P23443 (whole entry, looked up): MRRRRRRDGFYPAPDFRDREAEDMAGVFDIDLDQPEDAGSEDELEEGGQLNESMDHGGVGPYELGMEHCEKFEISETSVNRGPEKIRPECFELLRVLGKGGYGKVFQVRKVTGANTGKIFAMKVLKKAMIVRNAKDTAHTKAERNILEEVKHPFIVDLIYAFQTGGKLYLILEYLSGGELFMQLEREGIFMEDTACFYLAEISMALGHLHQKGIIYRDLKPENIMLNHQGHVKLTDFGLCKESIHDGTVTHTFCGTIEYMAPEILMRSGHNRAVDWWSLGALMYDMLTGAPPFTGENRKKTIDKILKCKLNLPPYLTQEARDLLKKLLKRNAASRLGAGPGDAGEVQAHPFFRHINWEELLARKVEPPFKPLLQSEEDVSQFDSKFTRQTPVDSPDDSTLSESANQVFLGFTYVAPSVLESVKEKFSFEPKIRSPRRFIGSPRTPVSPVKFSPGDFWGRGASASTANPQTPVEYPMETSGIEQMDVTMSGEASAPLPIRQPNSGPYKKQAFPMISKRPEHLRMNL
Observed: enzyme activity
Action: inhibitor
Tested at: 0.5 µM
Relative to: control
Measurement: remaining activity
CCN(CC)C(=O)c1ccc(Nc2nc(OCC3CCCCC3)c3[nH]cnc3n2)cc1: 89.5%
Cc1cc2ncc(-c3ccccc3)nc2cc1C: 88.2%
COc1cc2ncnc(Nc3ccc(O)c(Br)c3)c2cc1OC: 82.1%
N#C/C(=C\c1ccc(O)c(O)c1)C(=O)NCc1ccccc1: 92.8%
O=C(Nc1cccc(Nc2nccc(Nc3cccc(C(F)(F)F)c3)n2)c1)C1CC1: 98%
CCN(CC)CCNC(=O)c1c(C)[nH]c(/C=C2\C(=O)Nc3ccc(Cl)cc32)c1C: 41.7%
Cn1nc2c3c(cccc31)C(=O)c1ccccc1-2: 96.3%
O=C1C(Cl)=C(N2C(=O)CCC2=O)C(=O)c2ccccc21: 101%
COc1cc2c(cc1OC)-c1[nH]nc(Nc3cccc(F)c3)c1C2: 99.1%
Ic1cccc(CSc2nnc(-c3ccncc3)o2)c1: 100%
N#Cc1c(NC(=O)c2cccc3ccccc23)sc2c1CCCC2: 105%
C[C@@H]1CCN(C(=O)CC#N)C[C@@H]1N(C)c1ncnc2[nH]ccc12: 103%
c1ccc(-c2cnc(Nc3ccc(OCCN4CCCC4)cc3)s2)cc1: 92.3%
O=c1cc(-c2cccc3c2Sc2ccccc2S3)oc(N2CCOCC2)c1: 91.5%
CN(C)C[C@H]1CCn2c(c(C3=C(c4cn(C)c5ccccc45)C(=O)NC3=O)c3ccccc32)C1: 20%
Nc1cccc(-c2cc3c(Oc4cccc(O)c4)ncnc3[nH]2)c1: 95.3%
COc1cc2ncnc(Nc3cccc(Cl)c3)c2cc1OC: 88.5%
Cc1nc2cc3nc(-c4cccs4)cnc3cc2n1C: 95%
Cc1cn(-c2cc(NC(=O)c3ccc(C)c(Nc4nccc(-c5cccnc5)n4)c3)cc(C(F)(F)F)c2)cn1: 98%
CCOc1nc(NC(=O)Cc2cc(OC)ccc2OC)cc(N)c1C#N: 104%
O=C(NC(NC(=S)Nc1ccc(F)c([N+](=O)[O-])c1)C(Cl)(Cl)Cl)C(c1ccccc1)c1ccccc1 (centres unmarked): 91.9%
CCN(CC)CCNC(=O)c1c(C)[nH]c(/C=C2\C(=O)Nc3ccc(F)cc32)c1C: 42.3%
c1ccc(-c2[nH]ncc2-c2ccnc3ccccc23)nc1: 106%

Block 2
Structure (SMILES): Cn1nc(C(=O)NCc2ccc(C(=O)O)cc2)cc1-c1ccc2[nH]ccc2c1
Tested at: 0.1 µM
Measurement: remaining binding
Receptor tyrosine-protein kinase erbB-3 (ERBB3, Homo sapiens, UniProt P21860); cell-free assay, competition with immobilised ligand: 77%
Serine/threonine-protein kinase 38 (STK38, Homo sapiens, UniProt Q15208); cell-free assay, competition with immobilised ligand: 92%
Mast/stem cell growth factor receptor Kit (KIT, Homo sapiens, UniProt P10721, L576P); cell-free assay, competition with immobilised ligand: 59%
Casein kinase I isoform delta (CSNK1D, Homo sapiens, UniProt P48730); cell-free assay, competition with immobilised ligand: 84%
Interleukin-1 receptor-associated kinase 3 (IRAK3, Homo sapiens, UniProt Q9Y616); cell-free assay, competition with immobilised ligand: 83%
Ephrin type-A receptor 8 (EPHA8, Homo sapiens, UniProt P29322); cell-free assay, competition with immobilised ligand: 92%
Cyclin-dependent kinase-like 1 (CDKL1, Homo sapiens, UniProt Q00532); cell-free assay, competition with immobilised ligand: 70%
Ephrin type-A receptor 4 (EPHA4, Homo sapiens, UniProt P54764); cell-free assay, competition with immobilised ligand: 100%
Tyrosine-protein kinase JAK1, JH1 (JAK1, Homo sapiens, UniProt P23458); cell-free assay, competition with immobilised ligand: 93%
Ribosomal protein S6 kinase alpha-5, C-terminal kinase domain (RPS6KA5, Homo sapiens, UniProt O75582); cell-free assay, competition with immobilised ligand: 100%
Homeodomain-interacting protein kinase 3 (HIPK3, Homo sapiens, UniProt Q9H422); cell-free assay, competition with immobilised ligand: 88%
Serine/threonine-protein kinase SIK1 (SIK1, Homo sapiens, UniProt P57059); competition binding: 100%
Tyrosine-protein kinase ABL1, non-phosphorylated (ABL1, Homo sapiens, UniProt P00519, F317L); cell-free assay, competition with immobilised ligand: 87%
Mitogen-activated protein kinase kinase kinase kinase 2 (MAP4K2, Homo sapiens, UniProt Q12851); cell-free assay, competition with immobilised ligand: 85%
Beta-adrenergic receptor kinase 1 (GRK2, Homo sapiens, UniProt P25098); cell-free assay, competition with immobilised ligand: 98%
Serine/threonine-protein kinase 38-like (STK38L, Homo sapiens, UniProt Q9Y2H1); cell-free assay, competition with immobilised ligand: 99%
Vascular endothelial growth factor receptor 3 (FLT4, Homo sapiens, UniProt P35916); cell-free assay, competition with immobilised ligand: 43%
Casein kinase I isoform epsilon (CSNK1E, Homo sapiens, UniProt P49674); cell-free assay, competition with immobilised ligand: 80%
Mitogen-activated protein kinase kinase kinase kinase 1 (MAP4K1, Homo sapiens, UniProt Q92918); cell-free assay, competition with immobilised ligand: 97%
Tyrosine-protein kinase Srms (SRMS, Homo sapiens, UniProt Q9H3Y6); cell-free assay, competition with immobilised ligand: 81%
Cytoplasmic tyrosine-protein kinase BMX (BMX, Homo sapiens, UniProt P51813); cell-free assay, competition with immobilised ligand: 98%
Cyclin-dependent kinase 18 (CDK18, Homo sapiens, UniProt Q07002); cell-free assay, competition with immobilised ligand: 97%
Calcium/calmodulin-dependent protein kinase kinase 2 (CAMKK2, Homo sapiens, UniProt Q96RR4); cell-free assay, competition with immobilised ligand: 80%
Receptor-type tyrosine-protein kinase FLT3 (FLT3, Homo sapiens, UniProt P36888, D835V); cell-free assay, competition with immobilised ligand: 98%
cAMP-dependent protein kinase catalytic subunit alpha (PRKACA, Homo sapiens, UniProt P17612); cell-free assay, competition with immobilised ligand: 100%

Block 3
Target: Bromodomain-containing protein 4, BD1 (BRD4, Homo sapiens, UniProt O60885)
Action: binding
Method: isothermal titration calorimetry
Temperature: 15 °C
Measurement: ΔG
Cc1cnc(Nc2ccc(N3CCN(C)CC3)cc2)nc1Nc1cccc(S(=O)(=O)NC(C)(C)C)c1: -38.1 kJ/mol
Cc1cnc(Nc2ccc(OCCN3CCCC3)cc2)nc1Nc1cccc(S(=O)(=O)NC(C)(C)C)c1: -37.4 kJ/mol
CC[C@@H]1C(=O)N(C)c2cnc(Nc3ccc(C(=O)N[C@H]4CC[C@H](N5CCN(CC6CC6)CC5)CC4)cc3OC)nc2N1C(C)C: -39.1 kJ/mol
CC(C)CCN1c2nc(Nc3cc(F)c(O)c(F)c3)ncc2N(C)C(=O)C1C (centres unmarked): -29.7 kJ/mol

Block 4
Compound: CC(=O)N[C@@H](Cc1c[nH]c2ccccc12)C(=O)N[C@@H](CCC(=O)C=[N+]=[N-])C(=O)OC(C)C
Route: subcutaneous
Time: 5 days
Measurement: metabolite peak intensity
LC-MS/MS metabolomics, measured: phosphate; C57BL/6 CES1-/- mice, EL4 tumour, EL4 tumour; 0.3 mg/kg/day DON equivalent; higher = more metabolite: 3.42e+08 a.u. and 3.28e+08 a.u. and 2.99e+08 a.u. and 2.77e+08 a.u. and 3.13e+08 a.u. and 2.87e+08 a.u.
UPLC-MS/MS metabolomics, measured: N-acetylhistidine; C57BL/6 CES1-/- mice, EL4 tumour, EL4 tumour; 0.3 mg/kg/day DON equivalent, normalised to tissue mass; higher = more metabolite: 937000 a.u. and 1.1e+06 a.u. and 1.11e+06 a.u. and 656000 a.u. and 1.42e+06 a.u.
UPLC-MS/MS, measured: inosine 5'-monophosphate; EL4, C57BL/6 CES1-/- mice, EL4 tumour, tumour; 0.3 mg/kg/day DON equivalent, normalised to tissue mass; higher = more metabolite: 2.36e+07 a.u. and 1.52e+08 a.u. and 2.8e+07 a.u. and 1.88e+08 a.u. and 5.03e+07 a.u. and 2.34e+08 a.u.
UPLC-MS/MS, measured: lysine; EL4, C57BL/6 CES1-/- mice, EL4 tumour, tumour; 0.3 mg/kg/day DON equivalent, normalised to tissue mass; higher = more metabolite: 1.36e+09 a.u. and 1.62e+09 a.u. and 1.32e+09 a.u. and 1.2e+09 a.u. and 1.38e+09 a.u. and 1.44e+09 a.u.
LC-MS/MS metabolomics, measured: nicotinamide; C57BL/6 CES1-/- mice, EL4 tumour, EL4 tumour; 0.3 mg/kg/day DON equivalent; higher = more metabolite: 5.33e+08 a.u. and 3.93e+08 a.u. and 5.7e+08 a.u. and 5.21e+08 a.u. and 4.18e+08 a.u. and 5.64e+08 a.u.
LC-MS/MS, measured: methyl glucopyranoside (alpha+beta); C57BL/6 CES1-/- mice, EL4 tumour; 0.3 mg/kg DON equivalent: 242000 a.u. and 244000 a.u. and 165000 a.u. and 160000 a.u. and 220000 a.u. and 273000 a.u.
UPLC-MS/MS metabolomics, measured: guanosine 2'-monophosphate; C57BL/6 CES1-/- mice, EL4 tumour, EL4 tumour; 0.3 mg/kg/day DON equivalent, normalised to tissue mass: 96900 a.u. and 165000 a.u. and 172000 a.u. and 132000 a.u. and 210000 a.u. and 90600 a.u.
LC-MS/MS metabolomics, measured: orotidine; C57BL/6 CES1-/- mice, EL4 tumour, EL4 tumour; 0.3 mg/kg/day DON equivalent; higher = more metabolite: 2.5e+07 a.u. and 5.13e+07 a.u. and 6.8e+07 a.u. and 4.88e+07 a.u. and 3.72e+07 a.u. and 4.96e+07 a.u.
LC-MS/MS metabolomics, measured: mannose 6-phosphate; C57BL/6 CES1-/- mice, EL4 tumour, EL4 tumour; 0.3 mg/kg/day DON equivalent; higher = more metabolite: 1.73e+07 a.u. and 2.1e+07 a.u. and 1.86e+07 a.u. and 2.03e+07 a.u. and 1.36e+07 a.u. and 1.87e+07 a.u.
LC-MS/MS metabolomics, measured: methylsuccinate; C57BL/6 CES1-/- mice, EL4 tumour, EL4 tumour; 0.3 mg/kg/day DON equivalent; higher = more metabolite: 3.58e+08 a.u. and 1.71e+08 a.u. and 4.5e+08 a.u. and 1.68e+08 a.u. and 1.24e+08 a.u. and 1.5e+08 a.u.
